Assay results gathered from unrelated publications.
Numbered parts are unrelated; each lists some results of a single study. Values joined by “and” are separate records of one study, mostly repeats; a detail may differ.
Sequence of UniProt O14757 (whole entry, looked up): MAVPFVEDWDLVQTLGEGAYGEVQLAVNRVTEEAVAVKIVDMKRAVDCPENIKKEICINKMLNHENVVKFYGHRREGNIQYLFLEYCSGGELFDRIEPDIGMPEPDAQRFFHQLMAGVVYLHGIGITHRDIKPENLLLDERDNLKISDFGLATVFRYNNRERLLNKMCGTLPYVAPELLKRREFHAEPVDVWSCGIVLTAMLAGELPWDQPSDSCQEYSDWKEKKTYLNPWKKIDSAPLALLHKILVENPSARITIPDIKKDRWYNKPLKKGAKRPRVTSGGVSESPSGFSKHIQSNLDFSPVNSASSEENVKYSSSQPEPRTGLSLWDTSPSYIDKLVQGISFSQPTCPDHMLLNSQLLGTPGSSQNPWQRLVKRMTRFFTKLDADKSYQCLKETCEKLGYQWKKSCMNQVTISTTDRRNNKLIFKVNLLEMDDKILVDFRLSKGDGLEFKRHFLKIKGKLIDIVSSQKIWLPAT
Sequence of UniProt Q12851 (whole entry, looked up): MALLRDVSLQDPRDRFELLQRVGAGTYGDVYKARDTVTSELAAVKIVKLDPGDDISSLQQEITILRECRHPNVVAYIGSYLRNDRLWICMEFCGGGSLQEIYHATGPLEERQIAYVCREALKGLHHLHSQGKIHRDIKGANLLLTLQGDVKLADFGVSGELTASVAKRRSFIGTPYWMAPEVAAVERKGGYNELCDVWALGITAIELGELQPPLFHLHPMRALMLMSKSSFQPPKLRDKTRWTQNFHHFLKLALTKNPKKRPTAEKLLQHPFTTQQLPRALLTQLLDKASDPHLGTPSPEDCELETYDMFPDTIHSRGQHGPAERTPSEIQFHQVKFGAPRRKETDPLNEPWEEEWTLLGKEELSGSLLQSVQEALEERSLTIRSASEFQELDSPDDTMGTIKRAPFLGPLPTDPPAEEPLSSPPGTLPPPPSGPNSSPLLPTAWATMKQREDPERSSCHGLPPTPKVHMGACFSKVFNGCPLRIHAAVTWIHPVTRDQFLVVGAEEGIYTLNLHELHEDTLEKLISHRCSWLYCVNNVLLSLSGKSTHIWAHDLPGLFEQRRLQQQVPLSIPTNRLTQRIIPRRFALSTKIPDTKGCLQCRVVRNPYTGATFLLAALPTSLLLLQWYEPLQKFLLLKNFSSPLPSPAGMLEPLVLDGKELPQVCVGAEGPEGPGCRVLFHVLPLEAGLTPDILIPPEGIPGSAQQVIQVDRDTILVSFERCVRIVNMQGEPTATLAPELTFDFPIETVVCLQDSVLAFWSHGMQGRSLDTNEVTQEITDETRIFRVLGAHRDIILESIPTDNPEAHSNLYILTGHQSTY
Sequence of UniProt P07949 (whole entry, unmodified, looked up): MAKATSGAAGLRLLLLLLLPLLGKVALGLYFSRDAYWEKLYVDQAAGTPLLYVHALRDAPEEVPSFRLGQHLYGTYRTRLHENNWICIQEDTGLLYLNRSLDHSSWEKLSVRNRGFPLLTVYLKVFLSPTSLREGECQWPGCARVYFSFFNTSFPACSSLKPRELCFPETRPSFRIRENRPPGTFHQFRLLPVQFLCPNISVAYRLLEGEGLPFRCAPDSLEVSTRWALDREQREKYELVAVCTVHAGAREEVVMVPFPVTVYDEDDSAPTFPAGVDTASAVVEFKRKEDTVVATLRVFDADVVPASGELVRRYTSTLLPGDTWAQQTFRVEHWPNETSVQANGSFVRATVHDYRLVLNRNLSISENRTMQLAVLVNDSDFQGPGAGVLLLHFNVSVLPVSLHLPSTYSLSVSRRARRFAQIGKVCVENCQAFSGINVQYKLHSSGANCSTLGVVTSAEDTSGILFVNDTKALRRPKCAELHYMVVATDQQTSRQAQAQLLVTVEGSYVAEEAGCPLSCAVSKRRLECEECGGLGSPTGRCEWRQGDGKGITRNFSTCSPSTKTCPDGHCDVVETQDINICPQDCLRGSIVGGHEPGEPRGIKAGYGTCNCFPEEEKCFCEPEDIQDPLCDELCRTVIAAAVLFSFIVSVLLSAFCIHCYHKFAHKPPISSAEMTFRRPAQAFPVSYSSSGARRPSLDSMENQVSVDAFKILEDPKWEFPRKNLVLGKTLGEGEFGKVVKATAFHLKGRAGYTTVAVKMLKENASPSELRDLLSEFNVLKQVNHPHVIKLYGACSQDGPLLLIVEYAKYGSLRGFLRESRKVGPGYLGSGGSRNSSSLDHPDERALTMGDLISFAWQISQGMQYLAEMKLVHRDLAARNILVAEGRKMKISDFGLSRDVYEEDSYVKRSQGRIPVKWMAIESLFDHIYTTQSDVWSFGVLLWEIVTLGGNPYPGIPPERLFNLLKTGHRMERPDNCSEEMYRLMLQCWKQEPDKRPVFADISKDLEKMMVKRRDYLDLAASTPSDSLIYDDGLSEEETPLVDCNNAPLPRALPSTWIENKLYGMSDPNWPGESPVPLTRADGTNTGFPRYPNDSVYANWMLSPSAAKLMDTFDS
Sequence of UniProt Q06187 (whole entry, looked up): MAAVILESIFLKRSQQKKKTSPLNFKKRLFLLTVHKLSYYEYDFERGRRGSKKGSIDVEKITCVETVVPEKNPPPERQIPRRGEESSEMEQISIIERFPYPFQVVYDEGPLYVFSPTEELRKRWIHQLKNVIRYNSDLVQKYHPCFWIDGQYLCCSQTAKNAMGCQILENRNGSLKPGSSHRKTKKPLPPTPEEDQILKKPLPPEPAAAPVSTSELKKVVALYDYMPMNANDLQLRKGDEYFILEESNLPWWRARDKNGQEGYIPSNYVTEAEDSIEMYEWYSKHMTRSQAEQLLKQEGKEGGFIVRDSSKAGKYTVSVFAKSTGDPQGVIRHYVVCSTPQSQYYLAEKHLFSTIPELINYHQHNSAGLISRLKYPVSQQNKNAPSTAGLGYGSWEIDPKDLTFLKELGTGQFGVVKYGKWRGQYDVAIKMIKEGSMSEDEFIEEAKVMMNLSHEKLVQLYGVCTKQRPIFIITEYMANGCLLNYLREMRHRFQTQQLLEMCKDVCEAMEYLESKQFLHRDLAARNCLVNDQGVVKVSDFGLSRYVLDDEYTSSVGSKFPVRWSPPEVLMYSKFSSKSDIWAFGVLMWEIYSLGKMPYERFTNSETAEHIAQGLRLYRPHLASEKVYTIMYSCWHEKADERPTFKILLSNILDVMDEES
Sequence of UniProt Q02779 (whole entry, looked up): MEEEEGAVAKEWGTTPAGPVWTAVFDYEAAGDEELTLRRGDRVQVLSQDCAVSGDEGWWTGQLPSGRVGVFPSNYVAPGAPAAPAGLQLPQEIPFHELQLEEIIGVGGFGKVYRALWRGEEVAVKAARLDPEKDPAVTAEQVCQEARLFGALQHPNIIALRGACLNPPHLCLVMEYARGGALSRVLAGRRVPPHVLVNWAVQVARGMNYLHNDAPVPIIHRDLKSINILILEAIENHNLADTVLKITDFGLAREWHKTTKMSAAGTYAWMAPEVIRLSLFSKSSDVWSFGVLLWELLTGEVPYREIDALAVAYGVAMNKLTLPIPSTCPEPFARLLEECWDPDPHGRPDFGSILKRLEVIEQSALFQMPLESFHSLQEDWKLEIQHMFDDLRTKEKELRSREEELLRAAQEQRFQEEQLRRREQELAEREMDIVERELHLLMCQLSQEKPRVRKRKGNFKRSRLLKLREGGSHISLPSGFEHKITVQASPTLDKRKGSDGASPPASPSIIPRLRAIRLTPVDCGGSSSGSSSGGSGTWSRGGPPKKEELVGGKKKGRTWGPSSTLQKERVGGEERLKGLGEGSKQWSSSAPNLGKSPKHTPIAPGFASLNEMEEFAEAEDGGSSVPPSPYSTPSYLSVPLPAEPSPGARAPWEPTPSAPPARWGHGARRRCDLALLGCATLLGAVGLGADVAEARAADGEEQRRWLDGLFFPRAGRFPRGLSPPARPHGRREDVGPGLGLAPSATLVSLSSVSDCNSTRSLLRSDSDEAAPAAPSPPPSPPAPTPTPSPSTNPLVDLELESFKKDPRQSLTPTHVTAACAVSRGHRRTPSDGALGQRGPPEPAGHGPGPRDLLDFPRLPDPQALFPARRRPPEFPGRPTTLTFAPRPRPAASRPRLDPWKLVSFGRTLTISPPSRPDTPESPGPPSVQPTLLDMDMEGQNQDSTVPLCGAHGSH
Sequence of UniProt P50750 (whole entry, looked up): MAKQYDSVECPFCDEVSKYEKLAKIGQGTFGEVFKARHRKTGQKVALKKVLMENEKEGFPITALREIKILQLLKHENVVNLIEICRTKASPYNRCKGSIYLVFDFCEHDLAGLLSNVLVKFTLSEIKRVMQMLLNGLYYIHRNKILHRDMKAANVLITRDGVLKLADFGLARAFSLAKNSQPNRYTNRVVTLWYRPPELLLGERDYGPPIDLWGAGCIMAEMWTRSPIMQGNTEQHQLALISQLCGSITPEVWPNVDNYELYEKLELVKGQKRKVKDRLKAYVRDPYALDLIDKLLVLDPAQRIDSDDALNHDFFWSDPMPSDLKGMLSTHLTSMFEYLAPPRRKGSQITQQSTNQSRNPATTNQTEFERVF
Sequence of UniProt Q99640 (whole entry, looked up): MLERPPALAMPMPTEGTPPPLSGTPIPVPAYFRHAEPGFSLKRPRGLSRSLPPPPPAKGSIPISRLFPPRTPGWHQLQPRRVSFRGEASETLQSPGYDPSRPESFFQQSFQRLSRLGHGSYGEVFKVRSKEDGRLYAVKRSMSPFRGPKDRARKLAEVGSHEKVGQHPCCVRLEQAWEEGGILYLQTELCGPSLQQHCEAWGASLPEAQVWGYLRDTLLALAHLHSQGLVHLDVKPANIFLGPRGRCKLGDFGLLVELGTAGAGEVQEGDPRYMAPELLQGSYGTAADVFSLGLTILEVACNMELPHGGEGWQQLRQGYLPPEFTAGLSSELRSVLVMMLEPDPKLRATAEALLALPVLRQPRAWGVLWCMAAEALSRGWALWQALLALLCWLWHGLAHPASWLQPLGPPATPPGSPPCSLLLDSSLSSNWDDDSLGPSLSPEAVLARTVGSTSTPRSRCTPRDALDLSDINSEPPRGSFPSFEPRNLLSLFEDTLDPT

Study 1
Host: mouse
Sample: microsomes or S9
Concentration: 2 µM
Time: 0.5 h
Measurement: remaining compound
SMILES = Nc1n[nH]c2nc(N3CCCC3)c3c(c12)CCN(C1CCCCC1)C3; result = 56%
SMILES = Cn1ncc2cc(NC(=O)N3C[C@H]4CC=CC[C@H]4C3)ccc21; result = 67.3%
SMILES = COCCN(C(C)=O)c1nc(C)c(C(=O)Nc2nnc(C(C)C)s2)s1; result = 88.3%
SMILES = COC(=O)c1c(CC(=O)N2CCCC2C2CCCCC2)[nH]c(C(C)=O)c1C (stereo not shown); result = 0.243%
SMILES = Cc1nc(C2CC2)nc2sc(C(=O)NC3(C#N)CCCC3)c(N)c12; result = 6.37%
SMILES = NCCN(C1CCOCC1)S(=O)(=O)c1ccc(C2CCCCC2)cc1; result = 55%
SMILES = Cc1cccc(NC(=O)C2ON=CC2C(=O)N2CCOCC2)c1 (stereo not shown); result = 75.7%
SMILES = COc1cc(OC)c(OC)c(C(c2sc3nc(C)nn3c2O)N2CCN(C)CC2)c1 (stereo not shown); result = > 100%
SMILES = Cc1c[nH]c(CN2CCCCC2CCn2cccn2)c(C)c1=O (stereo not shown); result = 71.5%

Study 2
SMILES: Cc1cc(Nc2nc(-c3ccccc3)nc3ccccc23)n[nH]1
Observed: enzyme activity
Mode: inhibitor
Concentration: 0.5 µM
Baseline: control
Measurement: remaining activity
target = Mitogen-activated protein kinase kinase kinase 10 (MAP3K10, Homo sapiens, UniProt Q02779); result = 75.4%
target = Interleukin-1 receptor-associated kinase 4 (IRAK4, Homo sapiens, UniProt Q9NWZ3); result = 93.2%
target = Mitogen-activated protein kinase kinase kinase kinase 2 (MAP4K2, Homo sapiens, UniProt Q12851); result = 45.3%
target = Tyrosine-protein kinase BTK (BTK, Homo sapiens, UniProt Q06187); result = 43.4%
target = Cyclin-dependent kinase 9, with cyclin T1 (CDK9, Homo sapiens, UniProt P50750); result = 89.1%
target = Dual specificity mitogen-activated protein kinase kinase 6 (MAP2K6, Homo sapiens, UniProt P52564); result = 93.2%
target = Serine/threonine-protein kinase Nek4 (NEK4, Homo sapiens, UniProt P51957); result = 95%
target = Leucine-rich repeat serine/threonine-protein kinase 2 (LRRK2, Homo sapiens, UniProt Q5S007); result = 88.3%
target = Serine/threonine-protein kinase Chk1 (CHEK1, Homo sapiens, UniProt O14757); result = 69.1%
target = Serine/threonine-protein kinase PLK2 (PLK2, Homo sapiens, UniProt Q9NYY3); result = 110%
target = Mitogen-activated protein kinase 12 (MAPK12, Homo sapiens, UniProt P53778); result = 86.8%

Study 3
Compound: Cc1cc(NC(=O)c2cccc(S(F)(F)(F)(F)F)c2)cc(-n2ccn3nc(-c4cccnc4)cc23)c1
Observed: cell-free assay
Method: competition with immobilised ligand
Concentration: 1 µM
Measurement: remaining binding
target = Serine/threonine-protein kinase Chk1 (CHEK1, Homo sapiens, UniProt O14757); result = 72%
target = Ankyrin repeat and protein kinase domain-containing protein 1 (ANKK1, Homo sapiens, UniProt Q8NFD2); result = 100%
target = Receptor-type tyrosine-protein kinase FLT3 (FLT3, Homo sapiens, UniProt P36888, N841I); result = 100%
target = Receptor-type tyrosine-protein kinase FLT3 (FLT3, Homo sapiens, UniProt P36888, R834Q); result = 100%
target = Ephrin type-B receptor 6 (EPHB6, Homo sapiens, UniProt O15197); result = 100%
target = Membrane-associated tyrosine- and threonine-specific cdc2-inhibitory kinase (PKMYT1, Homo sapiens, UniProt Q99640); result = 100%
target = Death-associated protein kinase 2 (DAPK2, Homo sapiens, UniProt Q9UIK4); result = 100%
target = Casein kinase I isoform gamma-1 (CSNK1G1, Homo sapiens, UniProt Q9HCP0); result = 100%
target = Epidermal growth factor receptor (EGFR, Homo sapiens, UniProt P00533, G719C); result = 94.2%
target = Proto-oncogene tyrosine-protein kinase receptor Ret (RET, Homo sapiens, UniProt P07949, V804M); result = 74.2%
target = Macrophage colony-stimulating factor 1 receptor (CSF1R, Homo sapiens, UniProt P07333); result = 100%
target = Phosphatidylinositol 4,5-bisphosphate 3-kinase catalytic subunit alpha isoform (PIK3CA, Homo sapiens, UniProt P42336, H1047L); result = 100%
target = Calcium/calmodulin-dependent protein kinase type 1B (PNCK, Homo sapiens, UniProt Q6P2M8); result = 100%

Study 4
Cell line: mouse MPNST tumor cells
Method: high-content nuclear imaging
Item: cell number
Concentration: 10 µM
Time: 12 h
Setting: mean of 2 replicates
Baseline: plate mean
Reading: higher = more cells
Measurement: nuclei count
SMILES = O=C(CC1CC(c2ccc(F)cc2F)=NO1)N1CCOCC1 (stereo not shown); result = 0.0515 z-score
SMILES = Brc1ccc(CCC2(Cn3ccnc3)OCCO2)cc1; result = 0.666 z-score
SMILES = CC(=O)Oc1cc(C(F)(F)F)ccc1C(=O)O; result = 0.148 z-score
SMILES = CCC(=O)NCC[C@@H]1CCc2ccc3c(c21)CCO3; result = 0.858 z-score and 1.4 z-score
SMILES = Cc1ccc(S(=O)(=O)NC(=O)NN2CC3CCCC3C2)cc1 (stereo not shown); result = 0.115 z-score
SMILES = Cc1nc(C)c(Cl)c(O)c1Cl; result = 1.26 z-score
SMILES = CC(C)CC(=O)N[C@H](C(=O)N[C@H](C(=O)N[C@@H](CC(C)C)[C@@H](O)CC(=O)N[C@@H](C)C(=O)N[C@@H](CC(C)C)[C@@H](O)CC(=O)O)C(C)C)C(C)C; result = 0.0871 z-score
SMILES = CN(C)c1cccc(Oc2cnc(Nc3cccc(O)c3)nc2)c1; result = 0.6 z-score
SMILES = O=C1NCCCc2c1oc1ccc(O)cc21; result = 4.38 z-score
SMILES = Cc1ccc(C(=O)N(CCCN)[C@@H](c2oc3cc(Cl)ccc3c(=O)c2Cc2ccccc2)C(C)C)cc1; result = -4.9 z-score

For quick reference, copied from above (study 2):
target = Mitogen-activated protein kinase kinase kinase 10 (MAP3K10, Homo sapiens, UniProt Q02779); result = 75.4%
target = Serine/threonine-protein kinase Nek4 (NEK4, Homo sapiens, UniProt P51957); result = 95%
